Measured values collected from several papers.
Every numbered part comes from another study and shows a few of its results, in no order.
Sequence of UniProt P35916 (whole entry, looked up): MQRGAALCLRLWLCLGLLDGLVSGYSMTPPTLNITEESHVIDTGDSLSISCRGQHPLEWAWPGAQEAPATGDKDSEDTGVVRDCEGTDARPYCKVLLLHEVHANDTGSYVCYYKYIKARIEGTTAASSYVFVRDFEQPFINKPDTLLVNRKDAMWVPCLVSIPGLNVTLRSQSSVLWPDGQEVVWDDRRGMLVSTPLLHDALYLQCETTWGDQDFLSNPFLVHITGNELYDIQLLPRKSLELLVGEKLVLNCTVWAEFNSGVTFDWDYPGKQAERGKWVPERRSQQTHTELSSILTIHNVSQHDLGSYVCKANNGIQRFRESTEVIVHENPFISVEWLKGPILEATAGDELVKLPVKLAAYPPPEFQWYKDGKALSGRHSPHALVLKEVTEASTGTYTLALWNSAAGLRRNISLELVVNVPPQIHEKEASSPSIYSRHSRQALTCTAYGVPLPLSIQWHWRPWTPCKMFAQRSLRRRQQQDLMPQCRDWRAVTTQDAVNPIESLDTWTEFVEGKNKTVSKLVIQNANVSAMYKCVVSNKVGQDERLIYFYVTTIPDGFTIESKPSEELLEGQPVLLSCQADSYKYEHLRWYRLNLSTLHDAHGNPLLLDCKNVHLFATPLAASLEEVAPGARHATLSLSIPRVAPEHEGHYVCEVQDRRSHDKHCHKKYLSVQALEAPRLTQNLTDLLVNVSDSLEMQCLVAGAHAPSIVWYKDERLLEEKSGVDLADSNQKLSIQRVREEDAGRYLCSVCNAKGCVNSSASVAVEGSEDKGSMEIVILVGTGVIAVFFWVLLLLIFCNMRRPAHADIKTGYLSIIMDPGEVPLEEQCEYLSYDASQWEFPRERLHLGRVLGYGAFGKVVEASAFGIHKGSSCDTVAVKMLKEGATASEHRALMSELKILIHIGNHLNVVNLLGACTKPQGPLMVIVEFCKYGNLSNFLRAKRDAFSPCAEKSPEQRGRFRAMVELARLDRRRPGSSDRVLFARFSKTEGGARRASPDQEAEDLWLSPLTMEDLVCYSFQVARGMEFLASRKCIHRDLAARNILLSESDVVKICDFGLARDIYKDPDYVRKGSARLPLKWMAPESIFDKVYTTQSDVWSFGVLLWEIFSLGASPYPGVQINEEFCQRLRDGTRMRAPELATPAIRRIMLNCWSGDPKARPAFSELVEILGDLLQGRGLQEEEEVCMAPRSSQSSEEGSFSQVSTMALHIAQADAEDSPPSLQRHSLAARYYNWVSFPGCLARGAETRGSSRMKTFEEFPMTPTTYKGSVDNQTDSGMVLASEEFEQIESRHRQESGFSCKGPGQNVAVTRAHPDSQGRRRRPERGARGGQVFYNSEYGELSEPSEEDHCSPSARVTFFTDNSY
Sequence of UniProt P51817 (whole entry, looked up): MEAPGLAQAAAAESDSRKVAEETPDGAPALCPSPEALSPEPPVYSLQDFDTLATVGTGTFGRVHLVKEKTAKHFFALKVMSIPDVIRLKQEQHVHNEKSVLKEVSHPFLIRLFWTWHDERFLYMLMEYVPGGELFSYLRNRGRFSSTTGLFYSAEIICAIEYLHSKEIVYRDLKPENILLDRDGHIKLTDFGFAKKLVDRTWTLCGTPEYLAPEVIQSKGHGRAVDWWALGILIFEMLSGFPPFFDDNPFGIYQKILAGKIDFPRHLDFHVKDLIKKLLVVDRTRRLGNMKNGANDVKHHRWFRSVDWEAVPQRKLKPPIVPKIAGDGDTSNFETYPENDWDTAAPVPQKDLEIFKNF
Sequence of UniProt Q5VT25 (whole entry, looked up): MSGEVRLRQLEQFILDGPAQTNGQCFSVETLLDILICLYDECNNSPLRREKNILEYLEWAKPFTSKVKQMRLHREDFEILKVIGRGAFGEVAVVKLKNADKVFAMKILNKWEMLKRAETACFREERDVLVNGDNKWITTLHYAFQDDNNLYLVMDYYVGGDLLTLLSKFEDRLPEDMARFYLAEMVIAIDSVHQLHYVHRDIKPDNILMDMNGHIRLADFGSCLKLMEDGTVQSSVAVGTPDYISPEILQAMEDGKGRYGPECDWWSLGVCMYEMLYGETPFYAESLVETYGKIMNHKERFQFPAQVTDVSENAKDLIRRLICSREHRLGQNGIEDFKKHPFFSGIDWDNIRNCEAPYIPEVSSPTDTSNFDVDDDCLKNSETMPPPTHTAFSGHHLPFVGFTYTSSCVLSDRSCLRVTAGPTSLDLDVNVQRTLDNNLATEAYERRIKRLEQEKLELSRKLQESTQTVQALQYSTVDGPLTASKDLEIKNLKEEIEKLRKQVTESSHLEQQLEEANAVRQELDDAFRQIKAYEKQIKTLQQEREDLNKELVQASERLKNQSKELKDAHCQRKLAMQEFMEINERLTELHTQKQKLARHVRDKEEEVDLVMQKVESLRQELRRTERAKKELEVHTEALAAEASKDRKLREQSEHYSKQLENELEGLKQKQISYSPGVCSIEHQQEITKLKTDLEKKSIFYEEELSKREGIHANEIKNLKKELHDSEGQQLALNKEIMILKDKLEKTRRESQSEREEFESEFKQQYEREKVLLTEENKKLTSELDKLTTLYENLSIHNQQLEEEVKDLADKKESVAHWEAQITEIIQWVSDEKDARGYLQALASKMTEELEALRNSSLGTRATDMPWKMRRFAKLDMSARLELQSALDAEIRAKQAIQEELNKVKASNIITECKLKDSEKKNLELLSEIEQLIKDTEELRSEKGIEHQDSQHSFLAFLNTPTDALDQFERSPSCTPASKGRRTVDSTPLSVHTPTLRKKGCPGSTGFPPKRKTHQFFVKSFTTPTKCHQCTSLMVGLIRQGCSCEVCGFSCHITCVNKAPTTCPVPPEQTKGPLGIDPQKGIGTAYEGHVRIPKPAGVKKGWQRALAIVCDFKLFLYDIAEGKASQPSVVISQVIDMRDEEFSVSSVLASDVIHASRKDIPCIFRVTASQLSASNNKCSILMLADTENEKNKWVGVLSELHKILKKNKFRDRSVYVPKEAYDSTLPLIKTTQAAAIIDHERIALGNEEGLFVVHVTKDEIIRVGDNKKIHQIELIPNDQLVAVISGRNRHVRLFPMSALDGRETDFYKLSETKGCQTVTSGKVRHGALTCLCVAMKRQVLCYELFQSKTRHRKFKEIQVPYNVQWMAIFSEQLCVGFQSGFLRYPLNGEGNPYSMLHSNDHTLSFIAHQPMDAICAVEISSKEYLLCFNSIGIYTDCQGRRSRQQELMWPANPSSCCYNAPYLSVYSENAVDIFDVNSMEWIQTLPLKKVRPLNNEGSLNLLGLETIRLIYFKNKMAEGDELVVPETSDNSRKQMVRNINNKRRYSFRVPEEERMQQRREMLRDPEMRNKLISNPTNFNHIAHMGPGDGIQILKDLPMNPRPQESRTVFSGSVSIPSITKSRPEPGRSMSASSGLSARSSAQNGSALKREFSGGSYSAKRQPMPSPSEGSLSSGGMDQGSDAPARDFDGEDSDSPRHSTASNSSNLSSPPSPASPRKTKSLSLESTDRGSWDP
Sequence of UniProt Q9UBE8 (whole entry, looked up): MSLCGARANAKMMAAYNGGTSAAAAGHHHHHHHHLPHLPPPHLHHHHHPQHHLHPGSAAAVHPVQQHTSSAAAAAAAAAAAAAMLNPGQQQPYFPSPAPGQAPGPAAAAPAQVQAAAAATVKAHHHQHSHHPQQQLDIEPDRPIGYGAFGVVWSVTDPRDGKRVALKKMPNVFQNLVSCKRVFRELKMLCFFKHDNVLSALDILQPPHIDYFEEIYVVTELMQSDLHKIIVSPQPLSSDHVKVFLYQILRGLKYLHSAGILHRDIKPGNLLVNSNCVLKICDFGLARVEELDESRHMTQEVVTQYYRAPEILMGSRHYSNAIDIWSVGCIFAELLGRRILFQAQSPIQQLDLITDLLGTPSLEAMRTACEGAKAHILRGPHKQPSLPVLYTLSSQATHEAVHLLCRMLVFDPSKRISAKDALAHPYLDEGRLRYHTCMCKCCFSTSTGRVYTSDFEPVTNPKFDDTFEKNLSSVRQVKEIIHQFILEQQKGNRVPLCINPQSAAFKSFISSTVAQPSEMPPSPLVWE

Block 1 — effect on: binding; technique: radioligand binding; concentration: 10 µM
Target: Mu-type opioid receptor (OPRM1, Homo sapiens, UniProt P35372)
Sequence of UniProt P35372 (whole entry, looked up): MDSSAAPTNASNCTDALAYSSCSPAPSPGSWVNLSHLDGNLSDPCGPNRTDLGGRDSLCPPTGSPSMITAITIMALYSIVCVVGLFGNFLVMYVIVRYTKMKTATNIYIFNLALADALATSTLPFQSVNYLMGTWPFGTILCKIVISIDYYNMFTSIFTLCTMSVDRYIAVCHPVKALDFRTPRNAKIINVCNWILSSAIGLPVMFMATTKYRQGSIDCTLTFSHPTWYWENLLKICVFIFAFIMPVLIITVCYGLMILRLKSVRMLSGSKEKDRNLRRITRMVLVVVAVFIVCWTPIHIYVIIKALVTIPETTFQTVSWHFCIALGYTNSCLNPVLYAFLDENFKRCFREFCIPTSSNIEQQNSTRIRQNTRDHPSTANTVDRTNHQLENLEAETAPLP
The inhibition of CN1CCN(C(=O)C(C)(C)c2ccc(C(=O)Nc3cn4cc(-c5ccncc5)ccc4n3)cc2)CC1 is reported as 5.33%.
The inhibition of O=C(Nc1ccc(-n2nc(-c3cccnc3)cc2C(F)(F)F)cn1)c1ccc(-c2ccccc2)c(F)c1 is reported as 7.17%.
For Cc1nccc(COC(=O)N2C[C@@H]3[C@@H](CNC(=O)c4ccc5[nH]nnc5c4)[C@@H]3C2)n1, the inhibition was 12.1%.
O=C(Nc1cccnn1)N1CC(CC=Cc2cncc(Oc3ccc(C(F)(F)F)cn3)n2)C1 gave an inhibition of 1.18%.
Cc1c[nH]c2nccc(Oc3c(F)cc(Nc4cc(Cl)nc(N)n4)cc3F)c12 gave an inhibition of -0.03%.
CC(=O)Nc1c(F)cc(C(=O)N[C@H]2CC[C@H](O)CC2)cc1O[C@@H](C)c1ccccc1 has an inhibition of 20.4%.
O=C(Nc1cccnn1)N1CCC(=Cc2cccc(Oc3ccc(C(F)(F)F)cn3)c2)CC1 gave an inhibition of 17.5%.
The inhibition of Cc1nc(N2CC[C@@H](O)C2)ncc1-c1cc(C(F)(F)F)cc2[nH]ncc12 is reported as 7.79%.
For C[C@@]1(Cc2ccc(C#N)cc2)C(=O)N(c2cc(Cl)cc(Cl)c2)c2ncc(C(=O)NC3(c4nc(C5CCC5)no4)CC3)n21, the inhibition was 31.1%.
The inhibition of CS(=O)(=O)NCC[C@H](NC(=O)c1cncc2c1cnn2-c1ccc(F)cc1)c1ccnc(S(C)(=O)=O)c1 is reported as -0.92%.
COc1cccc(CNC(=O)c2nc3scc(COCc4ccc(C(=O)O)cc4)c3c(=O)[nH]2)c1 has an inhibition of -3.34%.
CN([C@@H]1CCc2c(CC(=O)O)c3cc(S(C)(=O)=O)ccc3n2C1)S(=O)(=O)c1ccc(F)cc1 has an inhibition of 7.34%.
For COc1cc(-c2cn(C3CCc4ccccc4N(CC(F)(F)F)C3=O)nn2)ccc1-n1ccc(C)n1 (stereo not drawn), the inhibition was 5.55%.
COCCc1ccc(-c2c(C)nc3c(N4CCOCC4)ccnn23)cn1 gave an inhibition of -1.51%.
For CC(=O)c1c(NS(C)(=O)=O)c2cc(-c3ccc(Cl)cc3)c(-c3ccc(Cl)cc3Cl)nc2n(C)c1=O, the inhibition was 34.4%.
With O=C(O)c1cc(-c2ccc(C3CCNCC3)cc2)c2ccc(-c3ccc(C(F)(F)F)cc3)cc2c1 the inhibition was 19.3%.
CC1=C(C#N)C(c2ccc3c(c2)c(NC(=O)c2ccccc2C)nn3C)C(C#N)=C(C)N1 has an inhibition of 13.7%.
CNC(=O)c1cc(C(=O)NC2CC2)cn(Cc2ccccc2)c1=O gave an inhibition of 13.5%.
For O=C1c2ccc(Nc3ccc(F)cc3F)cc2CCc2ccc(OC[C@H](O)CO)cc21, the inhibition was 22.5%.
CC(=O)Nc1nc(CN2CCC[C@H](Cc3cc(C)nc(C)c3)C2)cs1 has an inhibition of 27.3%.
With C[C@H](NC(=O)c1cnc2n1[C@](C)(Cc1ccc(C#N)cc1)C(=O)N2c1cc(Cl)c(F)c(Cl)c1)C(=O)NC1(c2ccccn2)CC1 the inhibition was 17.4%.

Block 2 — effect on: enzyme activity; action: inhibitor; concentration: 0.5 µM; reference: control
Structure (SMILES): N/C(=N\[N+](=O)[O-])N/N=C\c1ccc(-c2cccc([N+](=O)[O-])c2)o1
PRKX (Homo sapiens, UniProt P51817) — remaining activity: 97.8%.
The remaining activity was 94.7% (FER (Homo sapiens, UniProt P16591)).
NLK (Homo sapiens, UniProt Q9UBE8) — remaining activity: 103%.
TAOK3 (Homo sapiens, UniProt Q9H2K8) — remaining activity: 99.5%.
It gave 87.3% for remaining activity (CDC42BPA (Homo sapiens, UniProt Q5VT25)).
The remaining activity was 107% (MARK3 (Homo sapiens, UniProt P27448)).
It gave 110% for remaining activity (NEK11 (Homo sapiens, UniProt Q8NG66)).
PASK (Homo sapiens, UniProt Q96RG2) — remaining activity: 88.4%.
For FLT4 (Homo sapiens, UniProt P35916): remaining activity read 86.3%.

Block 3 — effect on: enzyme activity; action: inhibitor; concentration: 10 µM
Target: Calcium/calmodulin-dependent protein kinase type II subunit alpha (CAMK2A, Homo sapiens, UniProt Q9UQM7)
Sequence of UniProt Q9UQM7 (whole entry, looked up): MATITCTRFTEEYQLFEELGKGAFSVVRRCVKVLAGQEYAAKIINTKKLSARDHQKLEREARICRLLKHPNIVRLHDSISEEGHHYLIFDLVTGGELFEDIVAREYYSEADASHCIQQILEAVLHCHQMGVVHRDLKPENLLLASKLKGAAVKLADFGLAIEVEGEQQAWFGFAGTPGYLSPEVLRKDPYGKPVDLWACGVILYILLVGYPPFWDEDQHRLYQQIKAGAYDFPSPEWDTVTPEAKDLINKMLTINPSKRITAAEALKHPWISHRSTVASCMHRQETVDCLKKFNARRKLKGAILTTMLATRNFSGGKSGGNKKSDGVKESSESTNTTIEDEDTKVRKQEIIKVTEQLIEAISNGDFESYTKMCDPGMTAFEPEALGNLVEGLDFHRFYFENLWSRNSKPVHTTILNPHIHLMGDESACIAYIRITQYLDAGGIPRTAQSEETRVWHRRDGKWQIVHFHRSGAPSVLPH
With Cn1cc(C2=C(c3cn(C4CCN(Cc5ccccn5)CC4)c4ccccc34)C(=O)NC2=O)c2ccccc21 the inhibition was 3%.
With COC1=C[C@]23CCCN2CCc2cc4c(cc2[C@@H]3[C@@H]1O)OCO4 the inhibition was 46%.
The inhibition of CCCCCCCCC(=O)NCc1ccc(O)c(OC)c1 is reported as 18%.
CC[C@H]1[C@@H]2C[C@H]3[C@@H]4N(C)c5ccccc5[C@]45C[C@@H]([C@H]2[C@H]5O)N3[C@@H]1O has an inhibition of 1%.
The inhibition of C[C@@H]1CC[C@@]2(NC1)O[C@H]1C[C@H]3[C@@H]4CC=C5C[C@@H](O[C@@H]6O[C@H](CO)[C@@H](O[C@@H]7O[C@@H](C)[C@H](O)[C@@H](O)[C@H]7O)[C@H](O)[C@H]6O)CC[C@]5(C)[C@H]4CC[C@]3(C)[C@H]1[C@@H]2C is reported as 39%.
With C#C[C@]1(O)CC[C@H]2[C@@H]3CCC4=CC(=O)CCC4=C3C=C[C@@]21CC the inhibition was -3%.

Block 4 — cell line: A-375; concentration: 100 µM; time: 18 h
With C#C[C@]1(O)CC[C@H]2[C@@H]3CCC4=CC(=O)CC[C@]4(C)[C@H]3CC[C@@]21C the viability was 101%.
For C[C@]12CC[C@H](O)CC1=CC[C@@H]1[C@@H]2CC[C@]2(C)C(=O)CC[C@@H]12, the viability was 46.8%.
COc1cc2c(cc1OC)C13CCN4CC5=CCOC6CC(=O)N2C1C6C5CC43 (stereo not drawn) gave a viability of 88.1%.
CC(C)c1c(CN(C)C(C)Cc2ccccc2)n(C)n(-c2ccccc2)c1=O (stereo not drawn) has a viability of 109%.
COc1cccc2c1cc([N+](=O)[O-])c1c(C(=O)O)cc3c(c12)OCO3 has a viability of 58.9%.

Other studies, line by line
For C=CC(=O)N1CCC[C@@H](n2nc(-c3ccc(Oc4ccccc4)cc3)c3c(N)ncnc32)C1, the inhibition was 31% (Serine/threonine-protein kinase 33 (STK33, Homo sapiens, UniProt Q9BYT3); enzyme activity, inhibitor; 1 µM).

A few entries again (block 2):
PASK (Homo sapiens, UniProt Q96RG2) — remaining activity: 88.4%.
It gave 87.3% for remaining activity (CDC42BPA (Homo sapiens, UniProt Q5VT25)).
For FLT4 (Homo sapiens, UniProt P35916): remaining activity read 86.3%.
TAOK3 (Homo sapiens, UniProt Q9H2K8) — remaining activity: 99.5%.
